Measured values collected from several papers.

CC(C)NCC(O)c1ccc(O)c(O)c1 (centres unmarked)  sarcomere length (ventricular cardiomyocytes, C57BL/6 mouse; dose not given, 0.22 s): 1.51 µm
NC(=O)c1cnc2[nH]ccc2c1N[C@@H]1[C@@H]2CC3C[C@H]1C[C@@](O)(C3)C2  total memory T-cell change (flow cytometry; Japanese healthy men, blood; oral, 200 mg single dose, 24 h; reference: baseline): 0.53%
OC(CCN1CCCCC1)(c1ccccc1)C1CC2C=CC1C2 (centres unmarked)  change in EEG Alpha2-power Fz-Cz (resting-state EEG; healthy elderly humans; oral, 4 mg, eyes closed, LS mean; reference: baseline): 40.4%
COc1cc2cc(-c3ccc(CC(=O)Nc4cc(C(C)(C)C(F)(F)F)no4)cn3)cnc2cc1OC  stable disease as best response (human RET-altered advanced solid tumours; 75 mg, phase I pooled, RECIST 1.1): 49%
N#Cc1ccc2c(c1)[C@H]1CCCN(C(=O)c3ccc4[nH]cnc4c3)[C@H]1C2  change from baseline (measured: Triglycerides; human; 240 mg once daily, day 28, adjusted mean): -57.1 mg/dL
C[C@H](Oc1ccc(Br)cc1-c1ccon1)C(=O)O  effect difference vs placebo (measured: CMAP amplitude; human, tibialis anterior muscle; 1200 mg single dose, 3.5 h post-dose; reference: placebo): 0.043 mV
C[C@H]1C[C@H]2CSC(N)=N[C@@]2(c2nc(NC(=O)c3ccc(OC(F)F)cn3)cs2)CO1  total plasma Aβ change (healthy adults, fed, plasma; oral, 200 mg single dose, 6 h; reference: baseline, placebo-adjusted): -49.1%
CN[C@@H]1COc2c(S(=O)(=O)NC(=O)Nc3c4c(cc5c3CCC5)CCC4)cnn2C1  inhibition (measured: IL-18; human participants, whole blood ex vivo; 1800 mg single dose, 4 h, IL-18, circulating, adjusted for, together with: LPS/ATP; reference: baseline): 99.6%
Cc1nn(-c2nc3c(F)cc(F)cc3s2)c(O)c1C(c1ccc(C(F)(F)F)cc1)c1c(C)nn(-c2nc3c(F)cc(F)cc3s2)c1O  histology score (measured: pancreatic haemorrhage; mouse, cerulein-induced acute pancreatitis; 25 mg/kg; direction not given): 0
CC[C@@H]1[C@H](F)C(=O)N[C@@H]1COc1nccc2cc(C(N)=O)c(OC)cc12  inhibition (ATP-site probe binding, ActivX profiling, measured: MARK1, MARK2; THP-1 cell lysate; 0.2 mM, Lys1 site): 8.4%
CN(C(=O)n1cnc(-c2ccc[n+]([O-])c2)c1)C1CCCCC1  change in licking score (mice, formalin paw test; 3 mg/kg, late phase, together with: anandamide 5 mg/kg i.p.; reference: anandamide alone, direction not given): -86%
O=C(O)CNC(=O)Cc1ccccc1  sarcomere length (ventricular cardiomyocytes, C57BL/6 mouse; dose not given, 0.516 s): 1.62 µm
O=C1Nc2cc3[nH]nc(-c4ccncc4)c3cc2CN1Cc1ccccc1  progressive disease, best response (RECIST v1.1; human, relapsed or refractory advanced solid tumours; intravenous, 0.45 mg/kg, pooled schedules): 100%
c1ccc(-c2n[nH]cc2-c2ccnc3ccccc23)nc1  log2 fold change (kinase binding, competitor, MIB/MS competition, measured: CKA1; Candida albicans cell lysate; 1 µM; reference: DMSO): 1.35
